Measured values gathered from unrelated publications.
Every numbered part comes from another study and shows a few of its results, in no order.

Block 1
Target: Sal-like protein 4, full length isoform B (SALL4, Homo sapiens, UniProt Q9UJQ4-2, residues 1-616)
Method: universal PBM
Form: double-stranded DNA, one strand shown
Matrix: in vitro
Tested at: not given
Setting: 8-mer, flanks averaged, mean of replicates
Reading: higher = stronger binding
Residues (chain): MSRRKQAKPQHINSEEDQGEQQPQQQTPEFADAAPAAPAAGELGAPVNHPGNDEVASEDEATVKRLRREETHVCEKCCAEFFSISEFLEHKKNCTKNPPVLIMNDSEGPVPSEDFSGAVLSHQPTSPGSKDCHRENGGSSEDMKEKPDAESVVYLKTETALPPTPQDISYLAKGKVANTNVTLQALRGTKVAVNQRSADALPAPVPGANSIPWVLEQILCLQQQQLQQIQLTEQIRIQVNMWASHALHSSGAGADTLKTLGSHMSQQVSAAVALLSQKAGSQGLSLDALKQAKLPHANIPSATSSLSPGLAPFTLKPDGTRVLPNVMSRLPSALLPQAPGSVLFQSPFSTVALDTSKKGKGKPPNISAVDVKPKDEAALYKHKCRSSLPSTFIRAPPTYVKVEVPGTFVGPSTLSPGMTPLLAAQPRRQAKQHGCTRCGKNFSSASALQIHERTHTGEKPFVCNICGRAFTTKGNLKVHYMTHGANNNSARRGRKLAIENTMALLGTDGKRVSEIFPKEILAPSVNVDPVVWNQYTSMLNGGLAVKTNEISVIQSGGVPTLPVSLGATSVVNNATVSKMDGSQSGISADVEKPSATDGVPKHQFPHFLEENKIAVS
For `CCTTCATA`, the E-score was 0.241.
For `GAGCTGAA`, the E-score was -0.124.
For `CTCGCACA`, the E-score was -0.0575.
With `GATCGAAA` the E-score was 0.0879.
`CTTTTGTA` gave an E-score of 0.217.
For `ACCAAGCA`, the E-score was -0.125.
With `ATGGGGGG` the E-score was -0.0965.
`TACCCAGA` gave an E-score of 0.0677.
The E-score of `CACCCTTA` is reported as 0.0285.
For `GAAAAGCA`, the E-score was 0.0486.
The E-score of `ACTCGCGG` is reported as -0.251.
The E-score of `CTAATTAG` is reported as 0.173.
With `ACGGGACT` the E-score was -0.131.
With `AATATCCG` the E-score was 0.2.
`GCTTTCGA` gave an E-score of -0.121.
`ATCAGTCG` has an E-score of 0.0342.
The E-score of `TCCGTGAA` is reported as 0.00469.
With `GGCTCTAC` the E-score was -0.205.
The E-score of `ATTCTCTA` is reported as 0.132.

Block 2
Target: Interferon regulatory factor 5, full length, phosphomimetic (IRF5, Homo sapiens, UniProt Q13568-2, residues 1-514, K96S/S451D/S453D/S456D/S462D)
Method: protein-binding microarray
Form: double-stranded DNA, one strand shown
Matrix: in vitro
Tested at: 250 nM
Setting: 60-bp whole probe
Added: salmon DNA 0.4 mg/ml
Reference: random background probes
Reading: higher = stronger binding
All sequences stand within: GCCTAGCAC … GTCTTGATTCGCTTGACGCTGCTG
For `GACGGTATCTGGACTGGGGACGTGCTA`, the log fluorescence was -0.0346 z-score.
For `TGCATTCCCTTTCTCAACCTGTGCTAG`, the log fluorescence was 0.674 z-score.
`TCAGGACTGGGGTTTCGGTTAGTGCTA` gave a log fluorescence of 6.28 z-score.
The log fluorescence of `TATTCCCCATCACTCACTCTGTGCTAG` is reported as 1.06 z-score.
For `GGCGGACTGGGTCTCGGGACGTGCTAG`, the log fluorescence was -0.762 z-score.
The log fluorescence of `CACTTTGGATAACCAAAAACGTGCTAG` is reported as 0.481 z-score.
`GACGAACTGAGTATCTAGACGTGCTAG` gave a log fluorescence of 0.0385 z-score.
`TTAGATTTCGGGACTGGATAAGTGCTA` gave a log fluorescence of 2.68 z-score.
The log fluorescence of `TCACCGTTTCTTCTAGAACTGTGCTAG` is reported as 0.667 z-score.
`TTTTATGAAGGCCGGGGAGGGTGCTAG` gave a log fluorescence of 0.767 z-score.
The log fluorescence of `GACGATATCGGGTACCGAGACGTGCTA` is reported as 1.52 z-score.
`CTAGGACTGGGTTTCGGTTAGTGCTAG` has a log fluorescence of 7.95 z-score.
For `GACGATTTCAGTATCGCGACGTGCTAG`, the log fluorescence was 1.89 z-score.
`TTGGATCTCAGTCTCGATTAGTGCTAG` has a log fluorescence of 0.534 z-score.
`TCAATTTCAGTTTTCTTACTGTGCTAG` gave a log fluorescence of 4.57 z-score.
With `GACGGACTGGAAACTGGGGACGTGCTA` the log fluorescence was -0.376 z-score.
The log fluorescence of `TCATCTTTCCACTTGTCACTGTGCTAG` is reported as 1.33 z-score.
`TCATGTTTCTCAACCATACTGTGCTAG` gave a log fluorescence of 0.563 z-score.
With `GACGGACTGGGGTATCGAGACGTGCTA` the log fluorescence was 0.0538 z-score.
With `TCAATCCTCTCACCTCAGACTGTGCTA` the log fluorescence was 0.00334 z-score.
`TTCTGAACCATTTTGGTTTTGTGCTAG` has a log fluorescence of 0.505 z-score.
For `GACGGTATCCTTCCCCTGACGTGCTAG`, the log fluorescence was -0.00666 z-score.
`TTAGGTTTCTTTTATTCAAAGTGCTAG` has a log fluorescence of 2.16 z-score.
`GACGGTTTCGACTATTGGGACGTGCTA` has a log fluorescence of 5.81 z-score.
For `GACGGTATCGTACTGCTGACGTGCTAG`, the log fluorescence was 0.416 z-score.

Block 3
Target: Homeobox protein Hox-C11, full length (HOXC11, Homo sapiens, UniProt O43248, residues 1-304)
UniProt O43248, sequence (whole entry, looked up): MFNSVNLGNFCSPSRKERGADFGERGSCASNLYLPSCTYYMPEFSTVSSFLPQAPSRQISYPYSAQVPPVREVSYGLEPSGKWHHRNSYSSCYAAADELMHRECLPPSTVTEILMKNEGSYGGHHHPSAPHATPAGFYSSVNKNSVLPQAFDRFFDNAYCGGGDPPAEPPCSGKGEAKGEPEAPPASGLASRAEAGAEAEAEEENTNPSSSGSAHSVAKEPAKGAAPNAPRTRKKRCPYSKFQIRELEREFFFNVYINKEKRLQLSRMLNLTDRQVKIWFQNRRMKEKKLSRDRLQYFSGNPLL
Method: protein-binding microarray
Form: hairpin DNA
Matrix: in vitro
Tested at: not given
Setting: whole hairpin DNA, median over replicate spots
Reference: not given
Reading: higher = stronger binding
The median fluorescence of `GAGGCCAGGTCGTAGAAGCCTCCTGGCTTCTACGACCTGGCCTCACACTC` is reported as 10600 a.u.
`GAGGCCAGGCGGTAAAAGCCTCCTGGCTTTTACCGCCTGGCCTCACACTC (5mC at 10)` has a median fluorescence of 9770 a.u.
The median fluorescence of `GAGGCCAGGTGGTTAAAGCCTCCTGGCTTTAACCACCTGGCCTCACACTC` is reported as 9400 a.u.
For `GAGGCCAGGTCCGAAAAGCCTCCTGGCTTTTCGGACCTGGCCTCACACTC (5mC at 32)`, the median fluorescence was 9070 a.u.
`GAGGCCAGGTCGTTAAGGCCTCCTGGCCTTAACGACCTGGCCTCACACTC (5mC at 28)` has a median fluorescence of 10600 a.u.
`GAGGCCAGGTCCGTAAAGCCTCCTGGCTTTACGGACCTGGCCTCACACTC` has a median fluorescence of 9460 a.u.
The median fluorescence of `GAGGCCGGGTCGTTAAAGCCTCCTGGCTTTAACGACCCGGCCTCACACTC (5mC at 38)` is reported as 11300 a.u.
`GAGGCCAGCTCGTTAAAGCCTCCTGGCTTTAACGAGCTGGCCTCACACTC` has a median fluorescence of 9800 a.u.
`GAGGCCAGGTCGTAGAAGCCTCCTGGCTTCTACGACCTGGCCTCACACTC (5mC at 30)` has a median fluorescence of 10900 a.u.
`GAGGCCAGGTCGCAAAAGCCTCCTGGCTTTTGCGACCTGGCCTCACACTC` gave a median fluorescence of 10500 a.u.
`GAGGCCGGGTCGTTAAAGCCTCCTGGCTTTAACGACCCGGCCTCACACTC` has a median fluorescence of 12100 a.u.
With `GAGGCCAGGTCGTTCAAGCCTCCTGGCTTGAACGACCTGGCCTCACACTC (5mC at 15)` the median fluorescence was 9680 a.u.
With `GAGGCCAGCGCGTTAAAGCCTCCTGGCTTTAACGCGCTGGCCTCACACTC (5mC at 9)` the median fluorescence was 9100 a.u.
`GAGGCCAGGTCGTTATAGCCTCCTGGCTATAACGACCTGGCCTCACACTC` has a median fluorescence of 10200 a.u.
The median fluorescence of `GAGGCCAGGTCGTTACGGCCTCCTGGCCGTAACGACCTGGCCTCACACTC` is reported as 10600 a.u.

Block 4
Target: RING finger protein unkempt homolog, zinc fingers 1-6, GST-SBP tag (UNK, Homo sapiens, UniProt Q9C0B0, residues 30-357)
Method: RNA Bind-n-Seq
Form: RNA
Matrix: in vitro
Tested at: not given
Setting: RNA with constant flanks, human and mouse sites, ends assumed
Reference: input RNA pool
Reading: higher = stronger binding
Construct (chain): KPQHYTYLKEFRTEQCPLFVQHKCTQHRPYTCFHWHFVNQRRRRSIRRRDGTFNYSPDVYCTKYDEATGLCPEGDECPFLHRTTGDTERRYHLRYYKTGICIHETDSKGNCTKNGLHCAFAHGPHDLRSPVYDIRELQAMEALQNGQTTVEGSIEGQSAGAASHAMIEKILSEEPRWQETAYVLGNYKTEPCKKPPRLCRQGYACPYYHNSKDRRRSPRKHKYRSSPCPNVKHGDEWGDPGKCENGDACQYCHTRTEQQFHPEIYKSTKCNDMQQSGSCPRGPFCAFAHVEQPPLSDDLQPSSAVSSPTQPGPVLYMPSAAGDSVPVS
`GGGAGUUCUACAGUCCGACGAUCAGGGUUGUUUCAUCUCAAAGACCAUUUCAAGAAUCUUCUGACAAUGAAGGUAGGCGGACAACGAGGAGAUUGCUGUCACGCAUAGCUUCUAGCAUGUCAUCUACUUUUUUUUCACGAAGACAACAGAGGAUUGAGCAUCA` gave a bound/input enrichment of 0.126 ratio.
`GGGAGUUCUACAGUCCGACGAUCGCAGAAGGAUUUCUCCAGUGACGAUUCCAAGCUAGAGUAUAAUGUAGACGCUGCAAAUGGCAUUGUCAUGGAAGGGUAUCUGUUCAAACGAGCCAGCAACGCCUUCAAAACGUGGAACAGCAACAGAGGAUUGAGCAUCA` gave a bound/input enrichment of 0.216 ratio.
With `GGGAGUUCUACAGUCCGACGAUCAUGGGCCGCCACUGUGGAUACCUGGCCCUUGUCACCUCUCUGUCCUGUGGGGCCGACUGGGUUUUUAUUCCUGAAUGUCCACCAGAUGACGACUGGGAGGAACACCUUUGUCGCCGACUCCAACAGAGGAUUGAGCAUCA` the bound/input enrichment was 0.0734 ratio.
The bound/input enrichment of `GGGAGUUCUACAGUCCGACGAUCGCAUUUGUAGAAGGUGUGGUCAAGAAAGUGGCUCAGUACAUGGCUGAUGUGCUGGAGGACAGCAAAGAUAAAGUUCAGGAGAACUUGCUGGCCAGCGGAGUUGACUUGGUUACUUACAUACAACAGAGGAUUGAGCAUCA` is reported as 0.162 ratio.
The bound/input enrichment of `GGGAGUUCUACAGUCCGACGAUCAGCAAUGAAAAAGCAGCCCUUCUCCCAGCCCCCUUUUCACUAGGAGACACAAACAUUACAAUAGAAGAGCAAUUAAACUCAAUAAAUUUAUCUUUUCAGGAUGAUCCAGAUUCCAGUACCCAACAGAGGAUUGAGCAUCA` is reported as 8.7 ratio.
`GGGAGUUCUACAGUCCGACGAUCACAUUUUCCAUCUUCUAUAACAACACUCUGUUCCUGGUCGUGGUCAUUGUUGCUUCCUUCUUCAUAUUGAAGAACUUCAACCCCACAGUGUAUCCUUUUCAAGGAACUACAUAUUGUCCACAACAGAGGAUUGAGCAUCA` has a bound/input enrichment of 0.359 ratio.
For `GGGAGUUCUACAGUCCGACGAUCUGUUACUCUUAUUUAACAGGACCUCUGUUGUAUUGAUUUCUUCUGUAUCUUCCUUUUGAAUCUUGUAAGACAGAAGUUUAAGACCACGAGUUGGAAGACAAGUCACAUAAUCCAAACACACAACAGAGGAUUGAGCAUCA`, the bound/input enrichment was 0.145 ratio.
`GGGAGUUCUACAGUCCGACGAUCCAUAUCACUGAUGUGGUGCUGGACAAGGCCAAUAAAACACCACUUCGGCAACUGGAUCCCUCCAGACUACCUGGCAUAAACUGUGGCCCAGAUUUCACUCCAUCUUUUGCCAAUCUUGGCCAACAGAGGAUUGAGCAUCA` gave a bound/input enrichment of 0.0482 ratio.
For `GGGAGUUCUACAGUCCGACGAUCGAGAUUGUCUUCCAGGGCUAGCAAUUGGACUUUUGAUGAUGUUUGACCCAGCGGCAGGAAUAGCAGGCAACGUGAUUUCAAAGCUGGGCUCAGCCUCUGUUUCUUCUCUCGUGUAAUCGCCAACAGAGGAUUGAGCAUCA`, the bound/input enrichment was 0.178 ratio.
`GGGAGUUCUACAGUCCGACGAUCGUUGCUAUGCAACUCUUGCAGAUCCUGGAGCCGAAGAUGUUUCGCUAUGCUCACAAACUGGAGGUUCAGAGAACGGAUGGAGUCCUCAGUCAGCUGUCCCCGCUGCCACAUCUCUAUUCUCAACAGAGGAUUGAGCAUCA` has a bound/input enrichment of 0.24 ratio.
`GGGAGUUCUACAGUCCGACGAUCCGUACAACUAGAGGAAAGCGGAAGAGGGUUGAUGUGGAAGAAUCAGAGGCGAGUAGUAGUGUUAGCAUCUCUCAUUCCGCCUCAGCCACUGGAAAUGUUUGCAUCGAAGAAAUUGAUGUUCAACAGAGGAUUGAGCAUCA` has a bound/input enrichment of 1.02 ratio.
